Results from different studies.
Organism: Cryptococcus neoformans

SMILES	assay	test system	conditions	how to read	MIC
CCCCCCn1ccc([C@H](C)[C@](O)(Cn2cnnn2)c2ccc(F)cc2F)n1	growth, broth microdilution	H99	72 h, 30 °C, ≥50% inhibition	–	0.5 µg/mL
CCn1cc(C(=O)NCCNCCO)c(=O)c2cc(OCc3ccc(C(C)(C)C)cc3)c(Cl)cc21	–	ATCC 208821	–	≥80% growth inhibition	< 0.25 µg/mL
CCCCCCCCCCCCCNCC(=O)N(CC(=O)N(CCCCN)CC(=O)N(CCN)CC(=O)N(CC(N)=O)c1cccc2ccccc12)c1cccc2ccccc12	broth microdilution	–	72 h, 35 °C	–	6.25 µg/mL
COC(=O)C1=C(C)N(Cc2ccc(Br)cc2)C(=S)CC1c1ccc(OC)cc1 (stereo not drawn)	CLSI broth microdilution	H99S	72 h	–	32 µg/mL
CCCCCCCCCC1CC2CCC3CC(CCCCCCCCC)NC(=N1)N23 (stereo not drawn)	fungal growth	ATCC 90113	–	–	2.99 µM
CC(=O)c1ccc2c(c1)N(CCCN(C)C)c1ccccc1S2	–	–	highest of replicates	–	64 µg/mL
CCCCCC1CC2CCCC3CC(C)N=C(N1)N32 (stereo not drawn)	fungal growth	ATCC 90113	–	–	3.96 µM
CC(C)c1ccc(Cn2ccc([C@H](C)[C@](O)(Cn3cnnn3)c3ccc(F)cc3F)n2)cc1	growth, broth microdilution	H99	72 h, 30 °C, ≥50% inhibition	–	< 0.008 µg/mL
CCCCCCCCCCCCCC(=O)NCC(=O)N(CC(=O)N(CCCCN)CC(=O)N(CCN)CC(=O)N(CC(N)=O)C1CCCCC1)C1CCCCC1	broth microdilution	–	72 h, 35 °C	–	6.25 µg/mL
CSc1ccc2c(c1)N(CCC1CCCCN1C)c1ccccc1[S+]2[O-] (stereo not drawn)	–	–	highest of replicates	–	≥ 128 µg/mL
CCCCCCCCCCCCCNCC(=O)N(CC(=O)N(CCCCN)CC(=O)N(CCN)CC(=O)N(CC(N)=O)c1ccc2c(c1)CCC2)c1ccc2c(c1)CCC2	broth microdilution	–	72 h, 35 °C	–	1.56 to 3.13 µg/mL
C[C@@H](c1ccn(Cc2ccc(F)c(F)c2)n1)[C@](O)(Cn1cnnn1)c1ccc(F)cc1F	growth, broth microdilution	H99	72 h, 30 °C, ≥50% inhibition	–	0.0625 µg/mL
O=C(NCCNCCO)c1cn(Cc2cccc(Br)c2)c2cc(Cl)c(OCc3ccc(C(F)(F)F)cc3)cc2c1=O	–	ATCC 208821	–	≥80% growth inhibition	< 0.25 µg/mL
S=c1[nH]c2cccc(Cl)c2n1CCOc1ccccc1	CLSI broth microdilution	H99S	72 h	–	4 µg/mL
C[C@@H](c1ccn(Cc2ccc(Cl)c(Cl)c2)n1)[C@](O)(Cn1cnnn1)c1ccc(F)cc1F	growth, broth microdilution	H99	72 h, 30 °C, ≥50% inhibition	–	< 0.008 µg/mL

Excerpt of the above:
SMILES	assay	test system	conditions	how to read	MIC
CCCCCCCCCCCCCC(=O)NCC(=O)N(CC(=O)N(CCCCN)CC(=O)N(CCN)CC(=O)N(CC(N)=O)C1CCCCC1)C1CCCCC1	broth microdilution	–	72 h, 35 °C	–	6.25 µg/mL
CCCCCC1CC2CCCC3CC(C)N=C(N1)N32 (stereo not drawn)	fungal growth	ATCC 90113	–	–	3.96 µM
